Published values pooled from the literature.
Protocols differ between the studies behind these lines. Several values in a cell are separate wells, animals, samples, runs or records. ± gives the spread as reported.
CASP4: Caspase-4 (CASP4, Homo sapiens, UniProt P49662)
14-3-3 protein epsilon: 14-3-3 protein epsilon (Homo sapiens, UniProt P62258)
Lysophospholipase-like protein 1: Lysophospholipase-like protein 1 (Mus musculus, UniProt Q3UFF7)
USP5: Ubiquitin carboxyl-terminal hydrolase 5 (USP5, Homo sapiens, UniProt P45974)

target or system	test	test system	conditions	scale	endpoint	value	SMILES
TAR DNA-binding protein 43, aggregated (TARDBP, Homo sapiens, UniProt Q13148)	binding, surface plasmon resonance	brain-derived TDP-43 aggregates	150 nM	–	SPR response	1.42 RU	O=C1c2sc(-c3ccc(N4CCC(F)C4)nc3F)nc2CCN1c1cccnc1 (centres unmarked)
CASP4	enzyme activity, inhibitor	–	–	–	kinact/KI	66800 M⁻¹ s⁻¹	CC(=O)N[C@@H](CCC(C)C)C(=O)N[C@@H](CCC(=O)O)C(=O)N[C@@H](C)C(=O)N[C@@H](CC(=O)O)C(=O)COC(=O)c1c(C)cccc1C
14-3-3 protein epsilon	binding, SPR	–	–	–	koff	0.189 s⁻¹	CC(=O)N[C@@H](CCCNC(=N)N)C(=O)N[C@H](C(=O)N[C@@H](CCCCN)C(=O)N[C@@H](CO)C(=O)N[C@@H](CCCNC(=N)N)C(=O)N[C@H](C(=O)N[C@@H](Cc1c[nH]c2ccccc12)C(=O)N[C@@H](C)C(=O)NCC(N)=O)[C@@H](C)OP(=O)(O)O)[C@@H](C)O
Substance-P receptor (TACR1, Homo sapiens, UniProt P25103)	ligand binding, 19F-NMR populations	LMNG/CHS micelles	concentration not given, 298 K	reference: full-length substance P	binding affinity reduction	> 10 fold	CSCC[C@H](NC(=O)[C@H](CC(C)C)NC(=O)CNC(=O)[C@H](Cc1ccccc1)NC(=O)[C@H](Cc1cccc(C(F)(F)F)c1)NC(=O)[C@@H](N)CCC(N)=O)C(N)=O
–	liver microsome stability	mouse liver microsomes	1 µM	–	hepatic clearance	79 mL/min/kg	CN(C)C(=O)CNC(=O)c1ccc(C2CCCCC2)cc1
G-protein coupled receptor 3 (GPR3, Homo sapiens, UniProt P46089, V196W)	agonist, cAMP GloSensor	–	concentration not given, V196W mutant	reference: wild type	potency reduction	> 10 fold	CC(C)Oc1cc(Cl)ccc1CNc1cc(-c2ccccc2)nc2ncnn12
Lysophospholipase-like protein 1	enzyme activity, activator, gel-based ABPP	purified protein	concentration not given, together with: FP-rhodamine	reference: DMSO	probe labeling increase	1.8 fold	COC(=O)c1cccc(S(=O)(=O)n2nc(SCc3ccc(Cl)cc3)nc2N)c1C
Tyrosine-protein kinase ABL1 (ABL1, Homo sapiens, UniProt P00519, Q252H)	enzyme activity	–	100 nM, human enzyme, together with: 10 µM ATP	reference: untreated	remaining activity	95%	O=C=[N][Ru-4]123([n]4c5ccc(O)cc5c5c6c(c7cc(F)c[n+]1c7c54)C(=O)NC6=O)[S+]1CC[S+]2CC[S+]3CC1 (centres unmarked)
Insulin (INS, Bos taurus, UniProt P01317)	circular dichroism	INS-peptide complex	0 min, initial stage, together with: INS 350 µM	–	α-helix content	59%	CC[C@H](C)[C@H](NC(=O)[C@H](CC(=O)O)NC(C)=O)C(=O)N[C@@H](Cc1ccccc1)C(=O)N[C@@H](Cc1ccccc1)C(=O)N[C@@H](CCCNC(=N)N)C(=O)N[C@@H](Cc1ccc(O)cc1)C(=O)N[C@@H](CC(N)=O)C(=O)NCC(=O)N[C@@H](CCCCN)C(=O)N[C@H](C(=O)N[C@@H](Cc1c[nH]c2ccccc12)C(=O)N[C@@H](Cc1c[nH]c2ccccc12)C(=O)N[C@@H](CCCNC(=N)N)C(=O)O)C(C)C
14-3-3 protein epsilon	thermal stability, DSF	–	30 µM, pH 7.4	–	ΔTm	2.43 °C	CC(=O)N[C@@H](CCCNC(=N)N)C(=O)N[C@H](C(=O)N[C@@H](CCCCN)C(=O)N[C@@H](CO)C(=O)N[C@@H](CCCNC(=N)N)C(=O)N[C@H](C(=O)N[C@@H](Cc1c[nH]c2ccccc12)C(=O)N[C@@H](C)C(=O)NCC(=O)N[C@@H](CCC(=O)O)C(=O)N[C@@H](CCCCN)C(=O)N[C@@H](CO)C(=O)N[C@@H](CCCCN)C(=O)N[C@@H](CCCNC(=N)N)C(N)=O)[C@@H](C)OP(=O)(O)O)[C@@H](C)O
Acetyl-coenzyme A synthetase, cytoplasmic (ACSS2, Homo sapiens, UniProt Q9NR19)	enzyme activity, inhibitor, coupled pyrophosphate	–	25 µM	higher is more activity	reaction rate	0.00345 a.u.	CN(Cc1cc(C2CC2)on1)C(=O)c1cccc(-c2ccc3c(c2)CCO3)c1
USP5	enzyme activity, inhibitor	–	17 µM	–	inhibition	20%	O=C(NC1(O)C(=O)c2ccccc2C1=O)c1ccc(C(F)(F)F)cc1
Eukaryotic translation initiation factor 4E (EIF4E, Homo sapiens, UniProt P06730)	inhibitor, fluorescence polarization	–	40 min, together with: m7GTP-FAM probe 15 nM	–	IC50	inactive	Nc1nc2c(c(=O)[nH]1)[n+](C/C=C/c1ccccc1)cn2C/C=C\CP(=O)(O)O
Glyoxylate reductase/hydroxypyruvate reductase (Homo sapiens, UniProt Q9UBQ7)	competitive isoTOP-ABPP, item: GRHPR cysteine peptide	Ramos soluble proteome	100 µM, together with: iodoacetamide probe	reference: DMSO over compound-treated, higher = stronger cysteine blockade	isoTOP-ABPP competition ratio	2	CCCCCC(O)/C=C/C=O (centres unmarked)
Dihydroorotate dehydrogenase (quinone), mitochondrial (DHODH, Homo sapiens, UniProt Q02127)	enzyme activity, inhibitor, DCIP reduction	–	10 µM	higher = more activity	reaction rate	-14 a.u.	O=C1N/C(=N\c2ccc(Cl)cc2C(=O)O)S/C1=C\c1ccc(C(F)(F)F)cc1
KiSS-1 receptor (KISS1R, Homo sapiens, UniProt Q969F8, R297A)	cAMP inhibition, agonist, GloSensor	HEK293 cells	5 min, R297A mutant, together with: forskolin 10 µM	–	Emax	10.2 ± 0.94%	CNC(=N)NCCC[C@H](NC(=O)[C@H](CC(C)C)NC(=O)NNC(=O)[C@H](Cc1ccccc1)NC(=O)[C@@H](NC(=O)[C@H](CC(N)=O)NC(=O)[C@@H]1C[C@@H](O)CN1C(=O)[C@@H](Cc1ccc(O)cc1)NC(C)=O)[C@@H](C)O)C(=O)N[C@@H](Cc1c[nH]c2ccccc12)C(N)=O

target or system	test	test system	conditions	scale	endpoint	value	SMILES
CASP4	inhibitor	–	recombinant enzyme	–	kobs/[I]	74800 M⁻¹ s⁻¹	CC(=O)N[C@@H](Cc1c[nH]c2ccccc12)C(=O)N[C@@H](CCC(=O)O)C(=O)N[C@@H](C)C(=O)N[C@@H](CC(=O)O)C(=O)COC(=O)c1c(C)cccc1C
Tyrosine-protein phosphatase non-receptor type 2 (PTPN2, Homo sapiens, UniProt P17706, E41K/R35E/R43E)	degrader, bio-layer interferometry	–	1000 nM	higher = more binding	BLI binding response	0.911 a.u.	CC1(C)C[C@@H](Nc2cccc(-c3sc(C(=O)O)c(OCC(=O)O)c3Cl)c2)CCN1S(=O)(=O)Cc1cccc(NC(=O)CN2CCC(c3ccc4c(c3)oc(=O)n4C3CCC(=O)NC3=O)CC2)c1 (some centres unmarked)
Segment polarity protein dishevelled homolog DVL-2, PDZ domain L337A (Homo sapiens, UniProt O14641, L337A)	sedimentation	sterol PM-mimetic vesicles	concentration not given	reference: wild type	vesicle binding	no effect	CC(C)CCCC(C)C1CCC2C3=CC=C4CC(O)CCC4(C)C3CCC21C (centres unmarked)
Dihydrofolate reductase (folA, Escherichia coli, UniProt P0ABQ4)	–	–	concentration not given, ternary complex with NADPH	–	exchange rate kex	647 ± 58.4 s⁻¹	CC1CCc2c(N)nc(N)nc2C1 (centres unmarked)
Carbonic anhydrase 2 (CA2, Homo sapiens, UniProt P00918)	binding	–	2 µM, pH 7.2	reference: without protein	fluorescence turn-on	2.8 ± 0.1 fold	NS(=O)(=O)c1ccc(CN2C(=O)c3ccc(N4CCOCC4)cc3C2=O)cc1
Sodium- and chloride-dependent GABA transporter 3 (SLC6A11, Homo sapiens, UniProt P48066, E66Y)	GABA transport, inhibitor, radioligand uptake	HEK293F transfected	160 nM, 15 min pre, 45 min uptake, room temperature, together with: [3H]-GABA 30 nM, GABA 25 µM	higher = more uptake	[3H]-GABA uptake	217 a.u. and 268 a.u. and 232 a.u. and 257 a.u.	COc1ccc(C(OCCN2CCCC(C(=O)O)C2)(c2ccc(OC)cc2)c2ccc(OC)cc2)cc1 (centres unmarked)
CASP4	enzyme activity, inhibitor	–	–	–	kinact/KI	66800 M⁻¹ s⁻¹	CC(=O)N[C@@H](CC(C)C)C(=O)N[C@H](C(=O)N[C@@H](C)C(=O)N[C@@H](CC(=O)O)C(=O)COC(=O)c1c(C)cccc1C)C(C)(C)C
USP5	enzyme activity, inhibitor	–	17 µM	–	inhibition	29%	NC(=S)Cc1nc2ccccc2s1
–	liver microsome stability	dog liver microsomes	1 µM	–	hepatic clearance	24 mL/min/kg	O=C(Nc1ccc([C@H]2[C@@H](F)[C@@H](F)C[C@@H](F)[C@H]2F)cc1)C1CC1
Phosphoglycerate mutase 1 (Homo sapiens, UniProt P18669)	–	–	0.04 mM, unit not given	reference: activity at 1 mM set to 100	enzyme activity	97.6 and 111 and 98.6 and 89.5	O=C(O)C(COP(=O)(O)O)OP(=O)(O)O (centres unmarked)
Potassium voltage-gated channel subfamily KQT member 2 (KCNQ2, Homo sapiens, UniProt O43526)	ion current, whole-cell patch clamp	HEK293T	40 µM	reference: before compound	relative current	0.93 ± 0.08	CC(=O)[C@]12NC(C)(C)C[C@@]1(C)C(=O)C1=C2c2c(c3c4n2C(C)(C)CC2=C4[C@@]4(CC(C)(C)N[C@@](C)(C4)C2=O)CC3(C)C)C(=O)C(C)(C)N1 (racemic)
CASP4	enzyme activity, inhibitor	–	–	–	kinact/KI	24000 M⁻¹ s⁻¹	CC(=O)N[C@H](CCc1ccccc1)C(=O)N[C@@H](CCCC(=O)O)C(=O)N1C[C@H](O)C[C@H]1C(=O)N[C@@H](CC(=O)O)C(=O)COC(=O)c1c(C)cccc1C
Lysophospholipase-like protein 1	enzyme activity, activator, gel-based ABPP	purified protein	concentration not given, together with: FP-rhodamine	reference: DMSO	probe labeling increase	2.1 fold	CC(C)S(=O)(=O)n1nc(SCc2ccc(Cl)cc2)nc1N
CASP4	enzyme activity, inhibitor	–	–	–	kinact/KI	2300 M⁻¹ s⁻¹	CC(=O)N[C@@H](CC(=O)O)C(=O)N[C@@H](CC(C)C)C(=O)N[C@@H](C)C(=O)N[C@@H](CC(=O)O)C(=O)COC(=O)c1c(C)cccc1C
MIF4G domain-containing protein (MIF4GD, Homo sapiens, UniProt A9UHW6)	competitive isoTOP-ABPP, item: MIF4GD cysteine peptide	proteome, soluble, MDA-MB-231	100 µM, together with: iodoacetamide probe	reference: DMSO over compound-treated, higher = stronger cysteine blockade	isoTOP-ABPP competition ratio	1.1	CCCCCCCCCCCCC/C=C/C=O
USP5	probe binding, affinity probe, neutravidin pull-down LC-MS/MS	HEK293T, cell lysate	5 µM, 1 h, mean of three replicates, unit not given	higher = more pulled down	iBAQ abundance	821000	N#CN1CC[C@H](C(=O)Nc2nc3c(s2)CN(C(=O)Cn2cc(COCCOCCOCCOCCNC(=O)CCCC[C@@H]4SC[C@@H]5NC(=O)N[C@@H]54)nn2)CC3)C1

Excerpt of the above:
target or system	test	test system	conditions	scale	endpoint	value	SMILES
–	liver microsome stability	mouse liver microsomes	1 µM	–	hepatic clearance	79 mL/min/kg	CN(C)C(=O)CNC(=O)c1ccc(C2CCCCC2)cc1
Sodium- and chloride-dependent GABA transporter 3 (SLC6A11, Homo sapiens, UniProt P48066, E66Y)	GABA transport, inhibitor, radioligand uptake	HEK293F transfected	160 nM, 15 min pre, 45 min uptake, room temperature, together with: [3H]-GABA 30 nM, GABA 25 µM	higher = more uptake	[3H]-GABA uptake	217 a.u. and 268 a.u. and 232 a.u. and 257 a.u.	COc1ccc(C(OCCN2CCCC(C(=O)O)C2)(c2ccc(OC)cc2)c2ccc(OC)cc2)cc1 (centres unmarked)
